Assay results from different studies.
Numbered parts are unrelated; each lists some results of a single study.

Series 1 — method: RNA Bind-n-Seq; form: RNA; sample: in vitro; tested at: 20 nM; notes: 6-mer, flanks averaged, single round; with: 150 mM LiCl; reference: input library; reading: higher = stronger binding
Target: TAR DNA-binding protein 43, full length, His tag (TARDBP, Homo sapiens, UniProt Q13148, residues 1-414)
`CCCACC` — result for “6-mer enrichment (R)”: 1.06.
`ACCCUG` — result for “6-mer enrichment (R)”: 0.948.
`GACCUA` — result for “6-mer enrichment (R)”: 0.838.
`ACAGGA`: “6-mer enrichment (R)” 0.866.
For `UGUACU`, “6-mer enrichment (R)” read 0.919.
Under “6-mer enrichment (R)”, `CGCCGA` is recorded as 0.88.
For `GAAGCC`, “6-mer enrichment (R)” read 0.893.
`AGUGAA`: “6-mer enrichment (R)” 1.06.

Series 2 — method: RNAcompete; form: RNA; sample: in vitro; tested at: 20 nM; notes: 7-mer, probes averaged, single round; reference: mean of 7-mers; reading: higher = stronger binding
Target: PABPC1L2, full length, GST fusion (mouse, UniProt A0ABA7IW68)
Construct (chain): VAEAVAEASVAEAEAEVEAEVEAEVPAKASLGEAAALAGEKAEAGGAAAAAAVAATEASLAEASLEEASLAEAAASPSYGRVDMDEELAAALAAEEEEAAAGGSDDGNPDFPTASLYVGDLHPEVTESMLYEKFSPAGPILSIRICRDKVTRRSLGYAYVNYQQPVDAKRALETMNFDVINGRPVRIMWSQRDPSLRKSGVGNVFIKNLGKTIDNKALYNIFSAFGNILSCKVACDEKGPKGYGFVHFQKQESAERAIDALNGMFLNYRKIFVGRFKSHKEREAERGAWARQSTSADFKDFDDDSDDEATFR
The 7-mer Z-score of `GGAAAGG` is reported as 0.245.
`UUGGCGA` has a 7-mer Z-score of -0.00108.
`GGAGUGC` has a 7-mer Z-score of -0.0391.
`AGUUUCA` gave a 7-mer Z-score of -0.306.
For `ACGAUAC`, the 7-mer Z-score was -0.00289.
The 7-mer Z-score of `GCAUAGG` is reported as -0.0228.
With `AGUAUAA` the 7-mer Z-score was 0.332.
`GAUUCAC` has a 7-mer Z-score of -0.275.

Series 3 — method: protein-binding microarray; form: double-stranded DNA, one strand shown; sample: in vitro; tested at: 0.8 µM; notes: whole 60-bp probe, no competitor; reading: higher = stronger binding
Target: Centromere-binding protein 1, full length, N-terminal tag (CBF1, Saccharomyces cerevisiae, UniProt P17106, residues 1-351)
Chain of UniProt P17106 (whole entry, looked up): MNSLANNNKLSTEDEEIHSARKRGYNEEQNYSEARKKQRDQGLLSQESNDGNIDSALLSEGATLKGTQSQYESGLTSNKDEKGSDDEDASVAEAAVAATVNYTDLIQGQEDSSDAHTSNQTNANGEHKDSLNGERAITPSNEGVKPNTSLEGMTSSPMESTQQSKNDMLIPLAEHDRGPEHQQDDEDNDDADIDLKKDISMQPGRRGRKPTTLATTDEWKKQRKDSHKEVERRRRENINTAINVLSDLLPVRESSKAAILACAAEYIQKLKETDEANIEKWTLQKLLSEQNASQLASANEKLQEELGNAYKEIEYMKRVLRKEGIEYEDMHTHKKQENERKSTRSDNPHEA
The fluorescence intensity of `CTAGCCATTTCGCTTCTGATGCTTTAGCTGATGTTCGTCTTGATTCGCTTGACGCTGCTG` is reported as 483 a.u.
With `CTAAACAGGCATATACACACGCACTCTCTTTTTTTCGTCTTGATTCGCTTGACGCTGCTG` the fluorescence intensity was 533 a.u.
`TGTACGAAGCTATATCAGCAGACTATAGTAGTTAGGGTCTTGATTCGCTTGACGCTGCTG` gave a fluorescence intensity of 600 a.u.
`CTAACCCCATACTTACGCGTGGTTTAATTCTATTTCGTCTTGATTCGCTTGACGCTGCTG` has a fluorescence intensity of 558 a.u.
The fluorescence intensity of `CTATAATCTAAGCGCATCACCAACATTTTCTGGTTCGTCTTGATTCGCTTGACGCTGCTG` is reported as 513 a.u.
With `GAATATTCACTTTTGAACGTGACGGTAATTTTGTAGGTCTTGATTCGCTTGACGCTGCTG` the fluorescence intensity was 1230 a.u.
For `TGTACGAAGCTATATGTGGTCGCTATAGTAGTTAGGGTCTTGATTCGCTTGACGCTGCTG`, the fluorescence intensity was 491 a.u.
The fluorescence intensity of `GAAGGCAACGAGGACCACCTGAGTGTCGCCACTTAGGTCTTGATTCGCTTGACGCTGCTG` is reported as 527 a.u.

Single results of other studies
`REMHHLVEF` — result for binding: “inactive” (HLA class I histocompatibility antigen, C alpha chain, allele C*04:01 (Homo sapiens, UniProt P10321); peptide-MHC binding; peptide; concentration not given).

For quick reference, copied from above (series 1):
`CCCACC` — result for “6-mer enrichment (R)”: 1.06.
`AGUGAA`: “6-mer enrichment (R)” 1.06.
`ACAGGA`: “6-mer enrichment (R)” 0.866.
For `UGUACU`, “6-mer enrichment (R)” read 0.919.
